Assay results pooled from the literature.
Compare with care: the assays were run in different laboratories. “And” joins repeats or separate records; there may be more than shown. Numbers after ± are the reported error.
agrC: Receptor-histidine kinase AgrC (agrC, Staphylococcus aureus, UniProt O07911)
OPRK1: Kappa-type opioid receptor (OPRK1, Homo sapiens, UniProt P41145)
Chain of UniProt P41145 (whole entry, looked up): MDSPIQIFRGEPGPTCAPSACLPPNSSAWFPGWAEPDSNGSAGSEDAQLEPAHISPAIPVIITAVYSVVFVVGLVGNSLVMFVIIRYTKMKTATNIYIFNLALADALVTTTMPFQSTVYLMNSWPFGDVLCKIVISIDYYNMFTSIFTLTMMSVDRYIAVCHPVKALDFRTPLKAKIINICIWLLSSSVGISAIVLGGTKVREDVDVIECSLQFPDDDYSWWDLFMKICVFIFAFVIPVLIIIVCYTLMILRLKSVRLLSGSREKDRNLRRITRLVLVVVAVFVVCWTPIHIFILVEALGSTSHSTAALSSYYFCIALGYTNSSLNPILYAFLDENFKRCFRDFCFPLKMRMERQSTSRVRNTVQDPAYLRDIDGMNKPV
CNR2: Cannabinoid receptor 2 (CNR2, Homo sapiens, UniProt P34972)
Chain of UniProt P34972 (whole entry, looked up): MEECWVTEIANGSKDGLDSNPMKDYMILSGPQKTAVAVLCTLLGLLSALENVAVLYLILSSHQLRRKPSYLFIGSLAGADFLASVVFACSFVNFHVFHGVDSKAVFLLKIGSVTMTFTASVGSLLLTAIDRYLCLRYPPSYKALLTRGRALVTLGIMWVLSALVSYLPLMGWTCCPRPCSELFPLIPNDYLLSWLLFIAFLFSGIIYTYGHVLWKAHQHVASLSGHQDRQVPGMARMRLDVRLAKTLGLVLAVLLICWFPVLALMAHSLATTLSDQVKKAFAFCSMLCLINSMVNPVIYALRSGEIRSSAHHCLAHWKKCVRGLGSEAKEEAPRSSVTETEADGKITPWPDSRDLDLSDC
Chain of UniProt Q16581 (whole entry, looked up): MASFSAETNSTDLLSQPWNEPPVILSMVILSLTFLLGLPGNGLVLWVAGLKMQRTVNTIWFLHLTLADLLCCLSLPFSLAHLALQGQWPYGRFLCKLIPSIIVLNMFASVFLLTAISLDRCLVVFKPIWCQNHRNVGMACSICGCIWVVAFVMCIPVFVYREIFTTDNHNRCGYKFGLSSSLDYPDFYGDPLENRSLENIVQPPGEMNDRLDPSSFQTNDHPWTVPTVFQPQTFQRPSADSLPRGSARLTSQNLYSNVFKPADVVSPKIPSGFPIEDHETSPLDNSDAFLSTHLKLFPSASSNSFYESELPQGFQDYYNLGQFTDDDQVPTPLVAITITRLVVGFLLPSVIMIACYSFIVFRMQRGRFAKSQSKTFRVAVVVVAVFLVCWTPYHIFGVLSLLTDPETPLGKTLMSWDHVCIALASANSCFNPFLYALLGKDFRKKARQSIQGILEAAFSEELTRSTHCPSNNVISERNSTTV
Chain of UniProt Q6DWJ6 (whole entry, looked up): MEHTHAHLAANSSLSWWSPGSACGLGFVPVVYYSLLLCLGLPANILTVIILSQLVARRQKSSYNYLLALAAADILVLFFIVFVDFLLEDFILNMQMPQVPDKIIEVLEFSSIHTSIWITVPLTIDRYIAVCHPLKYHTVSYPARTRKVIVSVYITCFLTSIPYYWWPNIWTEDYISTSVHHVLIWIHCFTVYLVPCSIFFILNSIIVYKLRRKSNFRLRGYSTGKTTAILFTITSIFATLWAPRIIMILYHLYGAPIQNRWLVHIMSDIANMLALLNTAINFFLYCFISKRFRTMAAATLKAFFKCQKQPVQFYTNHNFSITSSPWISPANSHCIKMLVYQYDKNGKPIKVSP
Chain of UniProt P16885 (1-1195, looked up): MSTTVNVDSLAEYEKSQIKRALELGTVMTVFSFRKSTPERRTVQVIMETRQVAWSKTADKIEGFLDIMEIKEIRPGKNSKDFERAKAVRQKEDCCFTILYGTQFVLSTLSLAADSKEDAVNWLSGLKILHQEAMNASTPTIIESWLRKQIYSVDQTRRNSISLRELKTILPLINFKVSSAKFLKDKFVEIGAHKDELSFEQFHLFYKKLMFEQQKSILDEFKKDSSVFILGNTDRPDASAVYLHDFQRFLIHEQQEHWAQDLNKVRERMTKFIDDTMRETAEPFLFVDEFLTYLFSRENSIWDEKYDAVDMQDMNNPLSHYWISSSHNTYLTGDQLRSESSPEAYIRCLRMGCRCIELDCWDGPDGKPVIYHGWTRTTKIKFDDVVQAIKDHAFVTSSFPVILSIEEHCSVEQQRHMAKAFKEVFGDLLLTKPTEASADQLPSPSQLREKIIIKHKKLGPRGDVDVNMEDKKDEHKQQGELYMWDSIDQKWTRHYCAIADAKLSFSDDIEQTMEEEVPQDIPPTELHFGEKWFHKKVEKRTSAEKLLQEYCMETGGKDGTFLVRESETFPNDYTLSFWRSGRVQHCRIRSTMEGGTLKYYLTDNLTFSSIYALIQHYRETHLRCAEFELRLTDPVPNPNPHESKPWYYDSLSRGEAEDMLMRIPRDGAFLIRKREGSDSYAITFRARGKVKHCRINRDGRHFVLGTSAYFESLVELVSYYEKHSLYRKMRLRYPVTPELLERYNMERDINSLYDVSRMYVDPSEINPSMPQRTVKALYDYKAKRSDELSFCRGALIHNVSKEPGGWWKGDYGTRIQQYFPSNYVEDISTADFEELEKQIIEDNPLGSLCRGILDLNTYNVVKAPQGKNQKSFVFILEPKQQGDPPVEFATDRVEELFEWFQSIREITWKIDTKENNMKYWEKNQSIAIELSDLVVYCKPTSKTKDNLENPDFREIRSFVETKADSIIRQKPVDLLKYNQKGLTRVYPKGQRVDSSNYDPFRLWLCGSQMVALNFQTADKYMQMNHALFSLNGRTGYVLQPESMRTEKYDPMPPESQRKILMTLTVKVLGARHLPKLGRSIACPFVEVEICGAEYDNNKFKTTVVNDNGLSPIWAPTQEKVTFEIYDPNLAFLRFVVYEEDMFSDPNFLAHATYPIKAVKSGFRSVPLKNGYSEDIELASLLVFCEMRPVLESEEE
Chain of UniProt Q3TBT3 (whole entry, looked up): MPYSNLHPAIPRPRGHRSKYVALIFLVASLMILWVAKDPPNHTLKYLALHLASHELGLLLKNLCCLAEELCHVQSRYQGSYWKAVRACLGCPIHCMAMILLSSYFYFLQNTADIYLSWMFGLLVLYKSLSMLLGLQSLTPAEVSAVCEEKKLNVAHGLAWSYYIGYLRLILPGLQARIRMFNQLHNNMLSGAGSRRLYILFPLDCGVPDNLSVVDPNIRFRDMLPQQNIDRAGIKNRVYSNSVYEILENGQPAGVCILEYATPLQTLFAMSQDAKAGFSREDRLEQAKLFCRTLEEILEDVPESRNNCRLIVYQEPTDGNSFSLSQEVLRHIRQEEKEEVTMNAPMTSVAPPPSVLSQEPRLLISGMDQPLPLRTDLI
Chain of UniProt Q9UKP6 (whole entry, unmodified, looked up): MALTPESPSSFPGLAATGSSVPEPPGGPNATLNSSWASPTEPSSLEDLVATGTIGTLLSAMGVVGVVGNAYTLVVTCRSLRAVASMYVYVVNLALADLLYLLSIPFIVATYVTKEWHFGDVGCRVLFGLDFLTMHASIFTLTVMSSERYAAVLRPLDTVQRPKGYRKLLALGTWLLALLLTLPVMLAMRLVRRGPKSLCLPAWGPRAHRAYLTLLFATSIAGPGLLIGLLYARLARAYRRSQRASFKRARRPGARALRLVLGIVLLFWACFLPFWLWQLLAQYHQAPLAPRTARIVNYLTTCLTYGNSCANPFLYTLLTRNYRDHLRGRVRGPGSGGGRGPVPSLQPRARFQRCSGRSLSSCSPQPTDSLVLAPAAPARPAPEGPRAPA
Chain of UniProt Q07011 (whole entry, unmodified, looked up): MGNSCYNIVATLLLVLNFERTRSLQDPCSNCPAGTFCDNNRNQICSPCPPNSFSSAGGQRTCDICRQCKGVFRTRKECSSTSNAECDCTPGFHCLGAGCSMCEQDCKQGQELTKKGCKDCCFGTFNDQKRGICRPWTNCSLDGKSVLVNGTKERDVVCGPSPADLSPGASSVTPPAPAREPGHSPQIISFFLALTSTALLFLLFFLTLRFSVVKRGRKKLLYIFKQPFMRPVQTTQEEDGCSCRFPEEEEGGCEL
Chain of UniProt Q96NY8 (whole entry, looked up): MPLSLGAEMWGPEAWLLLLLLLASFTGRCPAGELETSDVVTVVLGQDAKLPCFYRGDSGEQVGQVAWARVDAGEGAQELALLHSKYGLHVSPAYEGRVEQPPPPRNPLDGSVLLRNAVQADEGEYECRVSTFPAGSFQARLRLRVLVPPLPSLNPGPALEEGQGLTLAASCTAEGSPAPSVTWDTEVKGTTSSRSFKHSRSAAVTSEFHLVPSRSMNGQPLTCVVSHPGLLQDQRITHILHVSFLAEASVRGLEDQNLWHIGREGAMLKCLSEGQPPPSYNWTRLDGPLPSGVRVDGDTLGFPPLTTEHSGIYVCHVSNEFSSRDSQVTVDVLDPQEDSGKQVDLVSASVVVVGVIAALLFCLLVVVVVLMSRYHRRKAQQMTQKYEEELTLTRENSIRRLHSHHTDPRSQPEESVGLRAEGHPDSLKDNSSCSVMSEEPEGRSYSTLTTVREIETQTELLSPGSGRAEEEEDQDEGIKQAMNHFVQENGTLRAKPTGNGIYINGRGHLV
Chain of UniProt P30988 (whole entry, looked up): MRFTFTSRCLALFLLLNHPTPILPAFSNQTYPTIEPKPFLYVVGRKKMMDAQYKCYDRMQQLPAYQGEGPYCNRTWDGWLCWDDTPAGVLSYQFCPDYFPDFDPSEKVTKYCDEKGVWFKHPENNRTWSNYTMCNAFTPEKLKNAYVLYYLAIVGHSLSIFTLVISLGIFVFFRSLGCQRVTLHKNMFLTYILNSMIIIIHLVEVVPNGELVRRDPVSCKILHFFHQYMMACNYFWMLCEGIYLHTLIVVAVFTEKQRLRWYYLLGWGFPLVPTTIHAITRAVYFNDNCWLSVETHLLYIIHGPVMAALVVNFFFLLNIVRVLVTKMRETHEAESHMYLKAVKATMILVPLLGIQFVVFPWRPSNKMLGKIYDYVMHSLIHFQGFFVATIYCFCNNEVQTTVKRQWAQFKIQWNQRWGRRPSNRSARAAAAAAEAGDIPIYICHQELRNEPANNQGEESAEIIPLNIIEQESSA

| SMILES | tested on | assay | test system | conditions | endpoint | value |
| --- | --- | --- | --- | --- | --- | --- |
| CC[C@H](C)[C@@H]1NC(=O)[C@H](Cc2ccccc2)NC(=O)C[C@H](C)NC(=O)[C@@H](NC(=O)[C@@H](NC(=O)[C@H](CO)NC(=O)[C@@H](N)Cc2ccc(O)cc2)[C@@H](C)O)CSC(=O)[C@H](CCSC)NC1=O | agrC | – | Staphylococcus aureus cells | – | EC50 | 345 nM |
| CC(C)C[C@H](NC(=O)[C@H](Cc1ccccc1)NC(=O)CNC(=O)CNC(=O)[C@@H](N)Cc1ccc(O)cc1)C(=O)N[C@@H](CCCNC(=N)N)C(=O)N[C@@H](CCCCN)C(=O)N[C@@H](Cc1ccc(O)cc1)C(=O)N1CCC[C@H]1C(=O)O | GPR139 (Homo sapiens, UniProt Q6DWJ6) | calcium response, agonist, BRET | HEK293T/17, transfected | – | EC50 | 17200 ± 930 nM |
| CCCCCCCCCCCCCC(=O)O[C@@H]1[C@@H](C)[C@@]2(O)[C@@H](C=C(CO)C[C@]3(O)C(=O)C(C)=C[C@@H]23)[C@@H]2C(C)(C)[C@]12OC(C)=O | 1-phosphatidylinositol 4,5-bisphosphate phosphodiesterase gamma-2, residues 1-1195 (PLCG2, Homo sapiens, UniProt P16885) | enzyme activity, activator | lipid vesicles | 15 min preincubation, together with: XY-69 substrate 0.5 µM | EC50 | 32000 nM |
| CC(=O)N[C@@H](CC(=O)O)C(=O)N[C@@H](CCC(=O)O)C(=O)N[C@H](C(=O)N[C@H](C=O)CC(=O)O)C(C)C | Caspase-7 (CASP7, Homo sapiens, UniProt P55210) | – | – | – | EC50 | 1.1 nM |
| O=C(Cc1ccc(Cl)c(Cl)c1)N1CCN[C@@H]2COC[C@H](N3CCCC3)[C@H]21 | OPRK1 | – | – | – | EC50 | 46 ± 5.4 nM |
| CCCC[C@@H]1NC(=O)[C@H](Cc2ccc(O)cc2)NC(=O)[C@@H]2CCCN2C(=O)[C@H](CC(=O)O)NC(=O)[C@H](C)NC(=O)[C@H](Cc2ccccc2)NC(=O)[C@@H]2CSCCC(=O)N3CN(CN(C3)C(=O)CCSC[C@@H](C(=O)N[C@@H](C)C(N)=O)NC1=O)C(=O)CCSC[C@H](NC(C)=O)C(=O)N[C@@H](CC(C)(C)C)C(=O)N1CCC[C@H]1C(=O)N[C@@H](CCC(=O)O)C(=O)N[C@H](CCCCNC(=O)CCc1cn(CCOCCOCCOCCN(CCOCCOCCOCCC(=O)N[C@H]3CSCCC(=O)N4CN5CN(C4)C(=O)CCSC[C@H](NC(=O)[C@@H](CC(=O)O)NC(=O)[C@H](Cc4cccc6ccccc46)NC(=O)[C@@H]4CCCN4C3=O)C(=O)N[C@@H](CCSC)C(=O)N[C@@H](CCCCNC(=N)N)C(=O)N[C@@H](CC(=O)O)C(=O)N[C@@H](Cc3c[nH]c4ccccc34)C(=O)N[C@@H](CO)C(=O)N[C@@H]([C@@H](C)O)C(=O)N3CCC[C@H]3C(=O)N3C[C@H](O)C[C@H]3C(=O)N[C@@H](Cc3c[nH]c4ccccc34)C(=O)N[C@H](C(N)=O)CSCCC5=O)CCOCCOCCOCCn3cc(CCC(=O)NCCCC[C@H]4NC(=O)[C@H](CCC(=O)O)NC(=O)[C@@H]5CCCN5C(=O)[C@H](CC(C)(C)C)NC(=O)[C@@H](NC(C)=O)CSCCC(=O)N5CN6CN(C5)C(=O)CCSC[C@H](NC(=O)[C@H](Cc5ccc(O)cc5)NC(=O)[C@@H]5CCCN5C4=O)C(=O)N[C@@H](Cc4ccccc4)C(=O)N[C@@H](C)C(=O)N[C@@H](CC(=O)O)C(=O)N4CCC[C@H]4C(=O)N[C@@H](Cc4ccc(O)cc4)C(=O)N[C@@H](CCCC)C(=O)N[C@H](C(=O)N[C@@H](C)C(N)=O)CSCCC6=O)nn3)nn1)C(=O)N1CCC[C@H]1C(=O)N[C@@H](Cc1ccc(O)cc1)C(=O)N2 | Tumor necrosis factor receptor superfamily member 9/Nectin-4 (Homo sapiens, UniProt Q07011+Q96NY8) | reporter gene, agonist | HT-1376 coculture with reporter cells | – | EC50 | 0.22 nM |
| CC[C@H](C)[C@@H]1NC(=O)[C@H](Cc2ccccc2)NC(=O)CCNC(=O)[C@@H](NC(=O)[C@@H](NC(=O)[C@H](CO)NC(=O)[C@@H](N)Cc2ccc(O)cc2)[C@@H](C)O)CSC(=O)[C@H](CCSC)NC1=O | agrC | – | Staphylococcus aureus cells | – | EC50 | > 10000 nM |
| CC(C)[C@H](NC(=O)[C@@H]1CSSC(C)(C)[C@H](NC(=O)[C@@H](N)CC(=O)O)C(=O)N[C@@H](Cc2ccccc2)C(=O)N[C@@H](Cc2c[nH]c3ccccc23)C(=O)N[C@@H](CCCCN)C(=O)N[C@@H](Cc2ccc(O)cc2)C(=O)N1)C(=O)O | UTS2R (Homo sapiens, UniProt Q9UKP6, R166A) | IP1 accumulation, agonist, HTRF | HEK293T | 1 h, 37 °C, R166A mutant, 4.42 | EC50 | 1 nM |
| C[C@@]12CC[C@@H]3[C@H](CC[C@@H]4C[C@@H](O)CC[C@]43C)[C@H]1CC(=O)C2 | CNR2 | cAMP, agonist | – | – | EC50 | 7820 nM |
| CN1CC[C@]23c4c5ccc(O)c4C[C@H]2[C@@H](O)C=C[C@H]3[C@H]1C5 | OPRK1 | – | cell-based | – | EC50 | 122 nM |
| CC(C)[C@H](NC(=O)c1ccn(Cc2ccc(F)cc2)n1)C(N)=O | CNR2 | calcium signal, agonist | – | – | EC50 | > 10000 nM |
| O=C(O)CCn1c(=O)oc2cc(Cl)c(Cl)cc21 | HTR1B (Homo sapiens, UniProt P28222) | agonist | – | – | EC50 | > 100000 nM |
| CC[C@H](C)[C@@H]1NC(=O)[C@H](Cc2ccccc2)NC(=O)[C@H](CC(=O)O)NC(=O)[C@@H](NC(=O)[C@@H](NC(=O)[C@H](CO)NC(=O)[C@@H](N)Cc2ccc(O)cc2)[C@@H](C)O)CCSC(=O)[C@H](CCSC)NC1=O | agrC | – | Staphylococcus aureus cells | – | EC50 | > 10000 nM |
| Cc1cc(C(c2ccc(Cl)cc2)c2ccc(Cl)cc2)sc1C(=O)N[C@@H](CCCNC(=N)N)C(=O)O | C3AR1 (Homo sapiens, UniProt Q16581) | cAMP, agonist, luciferase | – | – | EC50 | 2.82 nM |
| O=C1NC2(CC2)COc2ncc(F)cc2[C@H]2COCCN2c2ccn3ncc1c3n2 | – | – | Sprague-Dawley rat, female, brain | oral, 2.5 mg/kg/day, 4 weeks dosing, end of recovery | organ-to-body weight ratio | 0.658 ± 0.031% |
| Cc1ccc(N2CCC(N(C)C)CC2)cc1C(=O)N[C@H](C)c1cc(-c2cnn(C)c2)nc2ccccc12 | Vero E6 | – | – | 7.812 µM | viability | 91.8% and 89.7% and 87.3% |
| CN(C)[C@H]1COC[C@H]2NCCN(C(=O)Cc3ccc(Cl)c(Cl)c3)[C@@H]21 (relative stereo) | OPRK1 | – | – | – | EC50 | 350 ± 22 nM |
| Cc1ccc(N(C)C2CN(C)C2)cc1C(=O)N[C@H](C)c1cc(-c2cnn(C)c2)nc2ccccc12 | Vero E6 | – | – | 15.62 µM | viability | 89.7% and 91% and 87.7% |
| CC[C@H](C)[C@H](NC(=O)[C@H](C)NC(=O)CNC(=O)[C@H](Cc1ccccc1)NC(=O)[C@H](CC(N)=O)NC(=O)[C@H](CC(N)=O)NC(=O)[C@H](CO)NC(=O)[C@H](CO)NC(=O)[C@H](Cc1c[nH]cn1)NC(=O)[C@@H](NC(=O)[C@H](CC(C)C)NC(=O)[C@H](Cc1ccccc1)NC(=O)[C@H](CC(N)=O)NC(=O)[C@H](C)NC(=O)[C@H](CC(C)C)NC(=O)[C@H](CCCNC(=N)N)NC(=O)[C@H](CCC(N)=O)NC(=O)[C@@H](NC(=O)[C@H](C)NC(=O)[C@@H]1CSSC[C@H](NC(=O)[C@H](CCCCN)NC(=O)[C@H](CCCNC(=N)N)NC(=O)[C@H](CCCCN)NC(=O)[C@H](CCC(=O)O)NC(=O)[C@@H](NC(=O)[C@H](CCC(N)=O)NC(=O)[C@H](Cc2c[nH]cn2)NC(=O)[C@H](CO)NC(=O)[C@H](CCC(=O)O)NC(=O)[C@@H](NC(=O)[C@@H]2CCCN2C(=O)[C@@H](N)[C@@H](C)O)[C@@H](C)CC)C(C)C)C(=O)N[C@@H](CC(N)=O)C(=O)N[C@@H]([C@@H](C)O)C(=O)N[C@@H](C)C(=O)N[C@@H]([C@@H](C)O)C(=O)N1)[C@@H](C)O)C(C)C)C(=O)N[C@@H](CC(C)C)C(=O)N[C@@H](CO)C(=O)N[C@@H](CO)C(=O)N[C@H](C(=O)N[C@@H](CC(N)=O)C(=O)N[C@H](C(=O)NCC(=O)N[C@@H](CO)C(=O)N[C@@H](CC(N)=O)C(=O)N[C@H](C(=O)N[C@@H](Cc1ccc(O)cc1)C(N)=O)[C@@H](C)O)C(C)C)[C@@H](C)O | Calcitonin receptor, isoform a (CALCR, Homo sapiens, UniProt P30988) | cAMP accumulation, agonist | COS-7, transfected | – | EC50 | 50.1 nM |
| CC[C@H](C)[C@@H]1NC(=O)[C@H](Cc2ccccc2)NC(=O)[C@H](CC(=O)O)NC(=O)[C@@H](NC(=O)[C@@H](NC(=O)[C@H](CO)NC(=O)[C@@H](N)Cc2ccc(O)cc2)[C@@H](C)O)CSC(=O)[C@H](CCSC)NC1=O | agrC | – | Staphylococcus aureus cells | – | EC50 | 11 nM |
| CC[C@H](C)[C@H](NC(=O)[C@H](CO)NC(=O)[C@H](CCC(=O)O)NC(=O)[C@H](CC(C)C)NC(=O)[C@H](CCC(N)=O)NC(=O)[C@H](CCC(=O)O)NC(=O)[C@H](CC(C)C)NC(=O)CNC(=O)[C@H](CO)NC(=O)[C@@H]1CSC(CC(=O)NCCCCCC(=O)N2CCN(CCCOc3cc(C(N)=O)cc4nc(NC(=O)c5cc(C)nn5CC)n(C/C=C/Cn5c(NC(=O)c6cc(C)nn6CC)nc6cc(C(N)=O)cc(OC)c65)c34)CC2)C(=O)N1)C(=O)N[C@H](C(=O)N[C@@H](CC(N)=O)C(=O)N[C@@H](Cc1ccccc1)C(=O)N[C@@H](CCC(=O)O)C(=O)N[C@@H](CCCCN)C(=O)N[C@@H](CC(C)C)C(=O)O)[C@@H](C)CC (stereo partly drawn) | Sting1 (Mus musculus, UniProt Q3TBT3) | IFN-beta secretion, agonist, ELISA | dendritic cells, bone marrow-derived, mouse | 24 h, peptide conjugate, carrier-free | EC50 | 981 ± 97.3 nM |

Some of these lines once more:
| SMILES | tested on | assay | test system | conditions | endpoint | value |
| --- | --- | --- | --- | --- | --- | --- |
| CC[C@H](C)[C@H](NC(=O)[C@H](C)NC(=O)CNC(=O)[C@H](Cc1ccccc1)NC(=O)[C@H](CC(N)=O)NC(=O)[C@H](CC(N)=O)NC(=O)[C@H](CO)NC(=O)[C@H](CO)NC(=O)[C@H](Cc1c[nH]cn1)NC(=O)[C@@H](NC(=O)[C@H](CC(C)C)NC(=O)[C@H](Cc1ccccc1)NC(=O)[C@H](CC(N)=O)NC(=O)[C@H](C)NC(=O)[C@H](CC(C)C)NC(=O)[C@H](CCCNC(=N)N)NC(=O)[C@H](CCC(N)=O)NC(=O)[C@@H](NC(=O)[C@H](C)NC(=O)[C@@H]1CSSC[C@H](NC(=O)[C@H](CCCCN)NC(=O)[C@H](CCCNC(=N)N)NC(=O)[C@H](CCCCN)NC(=O)[C@H](CCC(=O)O)NC(=O)[C@@H](NC(=O)[C@H](CCC(N)=O)NC(=O)[C@H](Cc2c[nH]cn2)NC(=O)[C@H](CO)NC(=O)[C@H](CCC(=O)O)NC(=O)[C@@H](NC(=O)[C@@H]2CCCN2C(=O)[C@@H](N)[C@@H](C)O)[C@@H](C)CC)C(C)C)C(=O)N[C@@H](CC(N)=O)C(=O)N[C@@H]([C@@H](C)O)C(=O)N[C@@H](C)C(=O)N[C@@H]([C@@H](C)O)C(=O)N1)[C@@H](C)O)C(C)C)C(=O)N[C@@H](CC(C)C)C(=O)N[C@@H](CO)C(=O)N[C@@H](CO)C(=O)N[C@H](C(=O)N[C@@H](CC(N)=O)C(=O)N[C@H](C(=O)NCC(=O)N[C@@H](CO)C(=O)N[C@@H](CC(N)=O)C(=O)N[C@H](C(=O)N[C@@H](Cc1ccc(O)cc1)C(N)=O)[C@@H](C)O)C(C)C)[C@@H](C)O | Calcitonin receptor, isoform a (CALCR, Homo sapiens, UniProt P30988) | cAMP accumulation, agonist | COS-7, transfected | – | EC50 | 50.1 nM |
